Assay results from different studies.
Lines come from different studies, so protocols differ. Numbers after ± are the reported error.

| SMILES | test | test system | conditions | scale | measurement | result |
| --- | --- | --- | --- | --- | --- | --- |
| CC(C)[C@H]1NC(=O)C[C@H]2/C=C/CCSSC[C@@H](NC1=O)C(=O)N[C@H](Cc1cccc3ccccc13)C(=O)NCC(=O)O2 |  | nude mouse, blood | oral, 12 mg/kg |  | AUC | 0.272 ng·h/mL |
| CC(=CCC(O)C(C)=Cc1csc(C)n1)CC=CC(C)C(O)C(C)C(=O)C(C)(C)C(O)CC(=O)O (centres unmarked) |  | human, plasma | intravenous infusion, 8.5 mg/m2 KOS-1584, 3 h infusion, cycle 1 |  | Tmax | 3.17 ± 0.31 h |
| CCCCC[C@@H]1OC(=O)[C@@H](C)N(C)C(=O)[C@H](CCCCC)OC(=O)[C@@H](C)N(C)C(=O)[C@H](CCCCC)OC(=O)[C@@H](C)N(C)C(=O)[C@H](CCCCC)OC(=O)[C@@H](C)N(C)C1=O |  | Caco-2 | 10 µM, 2 h, pH 7.4 |  | Papp A→B | 1.2 ×10⁻⁶ cm/s |
| O=C(CN1CCN(c2cc3c(cc2F)c(=O)c(C(=O)O)cn3C2CC2)CC1)Nc1ccc(Cl)cc1 | two-compartment model | BALB/c mice, female | intravenous, 3.75 mg/kg |  | terminal half-life | 6.51 h |
| CC1(C)C(=O)N(c2ccc(C#N)c(C(F)(F)F)c2)C(=S)N1c1ccc(C(=O)O)c(F)c1 |  | human, male, plasma | oral, 160 mg, single dose, after high-fat meal |  | AUC(0-inf) | 55800 ± 13200 ng·h/mL |
| CC(C)C[C@H](NC(=O)[C@H](Cc1ccccc1)NC(=O)CNC(=O)C/C=C(\F)[C@@H](N)Cc1ccc(O)cc1)C(=O)O |  | BALB/c mice, brain | intravenous, 50 mg/kg |  | brain concentration | 0.06 to 0.14 µg/mL |
| CCCCCCCCCCCCC(=O)O.O=C1CCCC2C3CCCN4CCCC(CN12)C34 (centres unmarked) | electrical conductivity | water | 293.15 K, critical micelle concentration |  | standard enthalpy of micellization | -1.22 kcal/mol |
| CC(C)[C@@H]1NC(=O)[C@H](Cc2ccccc2)NC(=O)[C@H](Cc2ccc(O)cc2)NC(=O)CCSSC[C@@H](C(=O)N2CCC[C@H]2C(=O)N[C@H](CCCNC(=N)N)C(=O)NCC(N)=O)NC(=O)[C@H](CCC(N)=O)NC1=O |  | Wistar rat, blood | intravenous, 100 µg/kg single dose, 72 h |  | total protein | 6.9 ± 0.5 g/dL |
| CC[C@H](C)[C@H](NC(=O)[C@H]1CCC[C@@H]1NC(=O)[C@H](CCCCN)NC(=O)[C@H](CCCCN)NC(=O)C[C@H](C)NC(=O)[C@@H](NC(=O)[C@H](CCCCN)NC(=O)[C@H]1CCC[C@@H]1NC(=O)[C@H](CC(C)C)NC(=O)CN)C(C)C)C(=O)N[C@@H](CCCCN)C(=O)N[C@@H](CCCCN)CC(=O)N[C@@H](Cc1ccccc1)C(N)=O | circular dichroism | trifluoroethanol in water |  | baseline: 15% TFE over 100% TFE | helical rigidity | 31 ± 3% |
| CN(C)C(CNC(=O)Nc1cc(C(F)(F)F)ccc1N1CCOCC1)c1ccncc1 (centres unmarked) |  | mouse, serum | intraperitoneal, 180 mg/kg single dose |  | serum direct bilirubin | 0 mg/dL |
| COc1nc(CC=C(C)CC=CC(C)=CC(C)C(OC2OC(CO)C(O)C(O)C2O)C(C)=CCO)c(C)c(O)c1OC (centres unmarked) |  | human liver microsomes |  | baseline: UGT over CYP metabolism | elimination rate ratio | 7.38 |
| NC(=O)[C@H](Cc1ccccc1)N[11C](=O)OCc1ccccc1 | dynamic PET | Wistar rat, male, whole brain | intravenous, 3 min |  | SUV max | 1.5 |
| O=c1cc(-c2ccccc2)oc2c(Br)c(O)c(O)c(O)c12 |  | C57BL/6 mouse, plasma | oral, 250 mg/kg, single dose |  | AUC(0-inf) | 54500 ng·h/mL |
| CC(C)[C@H](NC(=O)CNC(=O)[C@H](CCC(N)=O)NC(=O)[C@H](C)N)C(=O)O | item: short-lasting postural dizziness | human | concentration not given, multiple dosing, lowest dose |  | subjects with adverse event | 33% |
| CN[C@](C)(C[18F])C(=O)O |  | mouse, blood | 15 min, tumour-bearing |  | tracer uptake | 2.6 %ID/g |
| CCN(Cc1ccccc1)C(=O)CCc1nc(CN2CCN(C(=O)Cc3ccc(OC)c(OC)c3)CC2)no1 |  | rat, kidney | intravenous, 1 mg/kg, 30 min, single dose |  | concentration | < 1.8 ng/g |
| CC1COC2=C1C(=O)C(=O)c1c2ccc2c1C(OC(=O)CNC(=O)CN)CCC2(C)C (mixture of isomers) |  | n-octanol/water | 25 °C |  | logP | 1.27 |
| CC[C@H](C)CCCCC(=O)N[C@@H](CCN)C(=O)N[C@H](C(=O)N[C@@H](CCN)C(=O)N[C@H]1CCNC(=O)[C@H]([C@@H](C)O)NC(=O)[C@H](CCN)NC(=O)[C@H](CCN)NC(=O)[C@H](CC(C)C)NC(=O)[C@@H](Cc2ccccc2)NC(=O)[C@H](CCN)NC1=O)[C@@H](C)O | ELISA | male CD-1 mouse, urine | subcutaneous, 25 mg/kg, 4 doses every 8 h, 24 h urine collection, nephrotoxicity |  | urinary cystatin C excretion | 1420 ng/24 h |
| COC(=O)C[C@](O)(CCCC(C)(C)OC(C)=O)C(=O)O[C@@H]1C(OC)=C[C@]23CCCN2CCc2cc4c(cc2[C@H]13)OCO4 |  | CD1 mouse, pancreas | subcutaneous, 1 mg/kg, 0.5 h |  | tissue concentration | 405 ng/mL |
| Cc1ccc(OCC(=O)N(Cc2cccs2)c2ccn[nH]2)cc1 |  | Crl:CD(SD) rat, bred female | oral, 1000 mg/kg/day, total per group, developmental toxicity |  | total corpora lutea count | 419 |
| CSCC[C@@H]1NC(=O)[C@@H]2CSSC[C@H](NC(=O)[C@H](CO)NC(=O)[C@H](C)N)C(=O)N[C@@H](CCCNC(=N)N)C(=O)N[C@@H]([C@@H](C)O)C(=O)N3CCC[C@H]3C(=O)N[C@@H](CCCCN)C(=O)N[C@@H](CC(=O)O)C(=O)N[C@H]3CSSC[C@H](NC(=O)[C@H](CCCCN)NC(=O)[C@H](CCCNC(=N)N)NC(=O)[C@H](CC(N)=O)NC1=O)C(=O)N[C@@H](CCCCN)C(=O)N[C@H]1CSSC[C@H](NC(=O)[C@@H]4CCCN4C(=O)[C@H](CC(=O)O)NC(=O)[C@H](C)NC3=O)C(=O)N[C@@H](C)C(=O)N[C@@H](CCCCN)C(=O)N[C@@H](CCC(=O)O)C(=O)N[C@@H]([C@@H](C)O)C(=O)NCC(=O)N[C@@H](CSSC[C@@H](C(N)=O)NC(=O)[C@H](CCCNC(=N)N)NC(=O)[C@H](CC(N)=O)NC1=O)C(=O)N1CCC[C@H]1C(=O)N[C@@H](Cc1ccc(O)cc1)C(=O)NCC(=O)N[C@@H](CCCCN)C(=O)N2 |  | DA rat pristane-induced arthritis, serum | subcutaneous, 0.1 mg/kg every other day, 21 days |  | Cholesterol | 66.8 mg/dL |
| CCc1c2c(nc3ccc(OC4OC(C(=O)O)C(O)C(O)C4O)cc13)-c1cc3c(c(=O)n1C2)COC(=O)C3(O)CC (centres unmarked) |  | human patients, plasma | intravenous, 32 mg/m^2 of parent drug |  | AUC(0-inf) | 853 ng·h/mL |
| CC(C)C[C@H](NC(=O)[C@H](CCCCN)NC(=O)[C@H](CCC(=O)O)NC(=O)[C@H](C)NC(=O)[C@@H](NC(=O)[C@H](CCCCN)NC(=O)[C@H](CC(=O)O)NC(=O)[C@H](Cc1ccc(O)cc1)NC(=O)[C@H](Cc1ccccc1)NC(=O)[C@H](C)NC(=O)[C@H](CCCCN)NC(=O)[C@H](CC(C)C)NC(=O)[C@H](Cc1c[nH]c2ccccc12)NC(=O)[C@@H](N)CC(=O)O)C(C)C)C(=O)N[C@@H](CCCCN)C(=O)N[C@@H](CCC(=O)O)C(=O)N[C@@H](C)C(=O)N[C@@H](Cc1ccccc1)C(=O)N1CCC[C@H]1C(=O)N[C@@H](CC(=O)O)C(=O)N[C@@H](Cc1c[nH]c2ccccc12)C(=O)N[C@@H](C)C(=O)N[C@@H](CCCCN)C(=O)N[C@@H](C)C(=O)N[C@@H](C)C(=O)N[C@@H](Cc1ccc(O)cc1)C(=O)N[C@@H](CC(=O)O)C(=O)N[C@@H](CCCCN)C(=O)N[C@@H](C)C(=O)N[C@@H](C)C(=O)N[C@@H](CCC(=O)O)C(=O)N[C@@H](CCCCN)C(=O)N[C@@H](C)C(=O)N[C@@H](CCCCN)C(=O)N[C@@H](CCC(=O)O)C(=O)N[C@@H](C)C(=O)N[C@@H](C)C(=O)O |  | cynomolgus monkey female, plasma | intravenous infusion, 8 mg/kg, day 1, 30 min infusion |  | Cmax | 125 µg/mL |
| CCCC[C@H](NC(=O)[C@H](Cc1c[nH]c2ccccc12)NC(=O)CNC(=O)[C@H](Cc1ccc(O)cc1)NC(=O)[C@H](C)NC(=O)[C@H](CCC(=O)O)NC(=O)[C@H](Cc1c[nH]cn1)NC(=O)[C@H](Cc1c[nH]cn1)NC(=O)CN1CCN(CC(=O)O)CCN(CC(=O)O)CCN(CC(=O)O)CC1)C(=O)N[C@@H](CC(=O)O)C(=O)N[C@@H](Cc1ccccc1)C(N)=O |  | MF1 nude mouse, male, AR-42J xenograft | intravenous, 0.2 µg, 4 h, 111In-labelled | baseline: tumour over kidney | tumour-to-kidney ratio | 0.31 |
| CC1(C)C(=CC=CC=CC2=[N+](CCCCN=[N+]=[N-])c3ccc(S(=O)(=O)[O-])cc3C2(C)C)N(CCCCCC(=O)O)c2ccccc21 |  | PBS |  |  | fluorescence quantum yield | 13% |
| C/C=C/C=C/C/C=C/CCCCCCCc1cccc(O)c1O |  | female Kunming mice, tumour-bearing, liver | intravenous, 10 mg/kg, 12 h |  | tissue concentration | 2870 ± 680 ng/g |
| CC[C@H](C)C(=O)N1CCC(NC(=O)Nc2ccc(OC(F)(F)F)c(F)c2)CC1 |  | healthy volunteers | oral, 2 mg single dose |  | subjects with limb injury TEAE | 0% |
| COC1CC(OC2CCC3(C)C(CCC45OC46CCC(C(C)=O)C6(C)C(OC(C)=O)C(OC(=O)c4ccccc4)C35)C2)OC(C)C1OC1OC(C)C(O)C(OC)C1O (centres unmarked) |  | Caco-2 | 10 µM |  | Papp A→B | 7.66 ×10⁻⁶ cm/s |
| CC[C@H](C)[C@H](NC(=O)[C@H](CCCCN)NC(=O)[C@@H](NC(=O)[C@H](CCC(N)=O)NC(=O)[C@H](CCCNC(=N)N)NC(=O)[C@@H](N)CC(=O)O)[C@@H](C)CC)C(=O)N[C@@H](Cc1c[nH]c2ccccc12)C(=O)N[C@@H](Cc1ccccc1)C(=O)N[C@@H](CCC(N)=O)C(=O)N[C@@H](CC(N)=O)C(=O)N[C@@H](CCCNC(=N)N)C(=O)N[C@@H](CCCNC(=N)N)C(=O)N[C@@H](CCSC)C(=O)N[C@@H](CCCCN)C(=O)N[C@@H](Cc1c[nH]c2ccccc12)C(=O)N[C@@H](CCCCN)C(=O)N[C@@H](CCCCN)C(=O)N[C@@H](CC(C)C)C(=O)N[C@@H](CC(=O)O)C(=O)N[C@@H](Cc1c[nH]c2ccccc12)C(=O)N[C@@H](CO)C(=O)N[C@@H](Cc1c[nH]c2ccccc12)C(=O)N[C@@H](CC(C)C)C(=O)O | open field | 5XFAD transgenic mouse | intranasal, 0.1 mg/kg every 2 days, 30 days |  | locomotor activity | no effect |

Repeated from above:
| SMILES | test | test system | conditions | scale | measurement | result |
| --- | --- | --- | --- | --- | --- | --- |
| CC1COC2=C1C(=O)C(=O)c1c2ccc2c1C(OC(=O)CNC(=O)CN)CCC2(C)C (mixture of isomers) |  | n-octanol/water | 25 °C |  | logP | 1.27 |
| CC[C@H](C)CCCCC(=O)N[C@@H](CCN)C(=O)N[C@H](C(=O)N[C@@H](CCN)C(=O)N[C@H]1CCNC(=O)[C@H]([C@@H](C)O)NC(=O)[C@H](CCN)NC(=O)[C@H](CCN)NC(=O)[C@H](CC(C)C)NC(=O)[C@@H](Cc2ccccc2)NC(=O)[C@H](CCN)NC1=O)[C@@H](C)O | ELISA | male CD-1 mouse, urine | subcutaneous, 25 mg/kg, 4 doses every 8 h, 24 h urine collection, nephrotoxicity |  | urinary cystatin C excretion | 1420 ng/24 h |
| COC(=O)C[C@](O)(CCCC(C)(C)OC(C)=O)C(=O)O[C@@H]1C(OC)=C[C@]23CCCN2CCc2cc4c(cc2[C@H]13)OCO4 |  | CD1 mouse, pancreas | subcutaneous, 1 mg/kg, 0.5 h |  | tissue concentration | 405 ng/mL |
